# Results pooled from the literature.
# Each numbered part is a random draw from the data of one study; scales do not carry over between parts. Changes are numbered by the printed parent chain.

# Series 1 — technique: DHFR PCA, deep sequencing; sample: yeast; added: (+)-ABA 0.11 µM; baseline: wild-type fitted maximum; reading: higher = stronger binding
# Target: ABI1, truncated, D143A, DHFR fusion (Arabidopsis thaliana)
# Setting: methotrexate growth selection, single substitutions
# Parent: PYL1, truncated, DHFR fusion (Arabidopsis thaliana); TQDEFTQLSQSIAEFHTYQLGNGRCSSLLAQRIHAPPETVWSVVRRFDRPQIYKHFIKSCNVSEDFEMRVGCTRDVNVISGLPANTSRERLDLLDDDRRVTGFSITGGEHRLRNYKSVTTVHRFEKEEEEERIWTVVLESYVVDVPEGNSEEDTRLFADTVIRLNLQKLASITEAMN; partner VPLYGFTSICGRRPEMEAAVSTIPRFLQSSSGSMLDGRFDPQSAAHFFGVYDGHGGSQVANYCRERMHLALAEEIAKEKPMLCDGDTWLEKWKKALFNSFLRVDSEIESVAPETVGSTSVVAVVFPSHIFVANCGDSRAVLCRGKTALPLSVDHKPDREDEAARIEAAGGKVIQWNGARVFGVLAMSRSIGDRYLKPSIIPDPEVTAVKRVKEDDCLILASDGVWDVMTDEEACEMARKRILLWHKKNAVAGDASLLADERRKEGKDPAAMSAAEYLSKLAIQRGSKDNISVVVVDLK
Change,relative binding score [%]
R90C,6.29
V145N,-7.3
R123S,52.9
Q19N,35.3
P50M,2.37
C60A,8.6
R113M,20.1
R99M,89.8
R98E,-4.33
S26I,-0.218
T39D,15
G71M,0.21
S171M,42.9
F124D,14.3
E127D,51.8
L91N,-5.1

# Series 2 — target: CCND3, cyclin fold, Cln2 fusion (human); technique: yeast growth competition, sequencing; sample: yeast; setting: weak parent motif; baseline: not given; reading: higher = stronger binding
# Parent: PKN2 docking peptide (human); VSAVQKLDFSDTM; partner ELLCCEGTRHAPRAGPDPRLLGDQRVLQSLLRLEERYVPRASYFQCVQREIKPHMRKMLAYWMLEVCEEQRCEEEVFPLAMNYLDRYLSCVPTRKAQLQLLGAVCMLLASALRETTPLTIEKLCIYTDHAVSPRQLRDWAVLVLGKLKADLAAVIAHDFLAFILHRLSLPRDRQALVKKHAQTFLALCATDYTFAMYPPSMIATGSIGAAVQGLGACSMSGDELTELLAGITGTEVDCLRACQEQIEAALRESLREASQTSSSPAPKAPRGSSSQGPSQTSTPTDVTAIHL
Change,normalised enrichment score
D11N,0.164
M13T,0.158
D11P,0.138
S10D,0.127
K6S,0.142
M13E,0.0855
V1M,0.113
A3T,0.0873
A3C,0.0923
T12S,0.14
S10C,0.106
T12V,0.0652
T12M,0.0533
F9Q,0.0745
S2E,0.0642
S10A,0.0701
S10G,0.102
S10I,0.169
D8F,0.108
A3H,0.0869
K6G,0.151
L7M,0.119
S2W,0.11

# Series 3 — technique: RNA Bind-n-Seq; form: RNA; sample: in vitro; tested at: 365 nM; baseline: no-protein control; reading: higher = stronger binding
# Target: RNA binding protein fox-1 homolog 2, RRM domain, GST-SBP tag (RBFOX2, Homo sapiens, UniProt O43251-10, residues 100-194)
# Setting: natural RNA segment, single round, ends assumed
Strand,RBNS enrichment (R)
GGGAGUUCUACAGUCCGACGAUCCGAUGUGUGCUUUAGGGAAUUUUAAGUUGCAUGCAUUUCAGAGACUUUAAGUCAGUUGGUUUUUAUUAGCUGCUUGGUAUGCAGUAACUUGGGUGGAGGCAAAACACUAAUGGAAUUCUCGGGUGCCAA,1.02
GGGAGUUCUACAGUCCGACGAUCAAGUAACAAGGUGUCUUUUCCACUCCUAUGGAAAAGGGUCUUCUUGGCAGCUUAACAUUGACUUCUUGGUUUGGGGAGAAAUAAAUUUUGUUUCAGAAUUUUGUAUAUUGUGGAAUUCUCGGGUGCCAA,0.376
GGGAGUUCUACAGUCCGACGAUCCUGCCAUUCACUCACUGCAGCAUAUUCAAGAAUAAAGCAAUAUCGUUUACUACAUUUUUUAUUGAAGGUCAGCCAUGCUUUCUGUAUUAUAUUGCAUAUGAAAUUGUUUAUGGAAUUCUCGGGUGCCAA,0.365
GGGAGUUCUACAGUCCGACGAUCUUUGGUGAGCUUUCUCAGAGCCAUGGCUGCAGGCAUGUGAGCUGCGGGAACUUCCUCCUGAACUACCCAGGGCCUAAUCAUCCAGCACCUGUGUGUUGAGGUAGACUGGUUGGAAUUCUCGGGUGCCAA,1.89
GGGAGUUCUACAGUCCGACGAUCAAAAAAAACUACAUGCAAAACUGUAGGUAAUGAAAAUGAUGUAUUUUUUUCAUCUUUUUUUGUUAACUAAUUUGCAAUAAAAAUGAUACUGAUGGUUGUCCACAUUUUGCUGGAAUUCUCGGGUGCCAA,0.45
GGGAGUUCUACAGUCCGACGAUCCAAGGCCUACUGACCAAAUUGUUGUGUCGAGAUAUUUAACUUUUGCCAAAUAAAAUAUAUUGAUUCUUUACGUUGUGCGGCUCUGCUCUUUGCACCUUCUUUUUCUAGGUUGGAAUUCUCGGGUGCCAA,0.64
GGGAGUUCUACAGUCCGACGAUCUGCUGAGGUUGGGGGCUCUGCCAUCCCUCCCCUGCUGGGUACCCUGUUACCAUUCAUUGUCUGUGCUGUUUCCCAUUGUGCCCAGCAGUAGCAACAACAAGAUCACAUGGUGGAAUUCUCGGGUGCCAA,0.388
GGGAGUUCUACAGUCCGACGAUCCUUUUUCCCUUGGAUCAGCCAAGCGAAACUUGGAGCUUUGACAAGGAACUUUCCUAAGAAACCGCUGAUAACCAGGACAAAACACAACCAAGGGUACACGCAGGCAUGCAUGGAAUUCUCGGGUGCCAA,3.33

# Series 4 — technique: protein-binding microarray; form: double-stranded DNA, one strand shown; sample: in vitro; tested at: 0.8 µM; setting: whole 60-bp probe, no competitor; reading: higher = stronger binding
# Target: Centromere-binding protein 1, full length, N-terminal tag (CBF1, Saccharomyces cerevisiae, UniProt P17106, residues 1-351)
# UniProt P17106, sequence (whole entry, looked up): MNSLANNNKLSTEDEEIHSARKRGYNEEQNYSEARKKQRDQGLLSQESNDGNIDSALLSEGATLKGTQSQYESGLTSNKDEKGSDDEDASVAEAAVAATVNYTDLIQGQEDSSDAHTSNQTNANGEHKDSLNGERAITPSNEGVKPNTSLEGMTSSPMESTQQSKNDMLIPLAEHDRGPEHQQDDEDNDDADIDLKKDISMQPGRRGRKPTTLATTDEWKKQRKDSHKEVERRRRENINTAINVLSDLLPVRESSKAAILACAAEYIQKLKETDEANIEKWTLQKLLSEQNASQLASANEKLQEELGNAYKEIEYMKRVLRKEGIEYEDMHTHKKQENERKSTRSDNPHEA
Strand,fluorescence intensity
GAACAAATATATGATCACGTGCGATTGTGTAAATAGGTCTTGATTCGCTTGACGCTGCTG,17800 a.u.
GAACCGAGCGAGAATCACGTAAAGAAGGTTCTATAGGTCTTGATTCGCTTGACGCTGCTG,548 a.u.
TGTACGAAGCTATATCAGGAGGATATAGTAGTTAGGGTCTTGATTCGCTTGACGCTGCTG,532 a.u.
CTAGACACTATAAATGACATGATGTGAGCCTTATTCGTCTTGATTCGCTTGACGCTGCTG,525 a.u.
GAACATTTTGCTGGTGATGGCATTGCATCTGAGTAGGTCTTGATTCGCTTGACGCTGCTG,520 a.u.
GAACAAACACCCTTCCACGGGAAGCGCCAGCCGTAGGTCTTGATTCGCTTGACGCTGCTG,491 a.u.
GAAATTGTACCTGATCATGCTAGACAAATAACGTAGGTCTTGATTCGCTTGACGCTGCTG,638 a.u.
CTACCGTGGAAAGAGCACGTGCCTCGCTGGATCTTCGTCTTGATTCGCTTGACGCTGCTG,13400 a.u.
CTAGAAATGAAAGATCACGGGCTACGAAAAGCCTTCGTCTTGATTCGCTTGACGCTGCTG,1610 a.u.
CTAAGCAGTTCCTCAGGTGTTTCTTGTTACTGCTTCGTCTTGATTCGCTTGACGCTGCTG,512 a.u.
GAAACGAGTTGCATGCACGCGTTCATGCCCGTATAGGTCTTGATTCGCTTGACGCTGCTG,600 a.u.
TGTACGAAGCTATGTGATCTCGTTATAGTAGTTAGGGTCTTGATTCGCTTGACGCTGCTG,533 a.u.
GAAAATCCCAACAATTACATCAGAATCCACACATAGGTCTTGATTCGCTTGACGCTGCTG,543 a.u.
GAAAAAGGGAATAAACAGTCACCTTTAACAAGATAGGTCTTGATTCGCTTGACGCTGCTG,556 a.u.
CTAATTGTAAAGAATAACGTGGAGGCAGTCAGATTCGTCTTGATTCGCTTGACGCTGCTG,535 a.u.
GAAAGCCTGCAAGAGCACGAAAGATATGTTTTCTAGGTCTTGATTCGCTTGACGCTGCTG,502 a.u.
CTATGTTTGTTTACGCACGTTTATATATTTAACTTCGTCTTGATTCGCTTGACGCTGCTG,652 a.u.
GAAACAAAGGGGCGCCGCGTGGTGTTACGTACTTAGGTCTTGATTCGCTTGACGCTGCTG,539 a.u.
GAAAAAGCAAAAGTGTTGGTGATGAAGAAGAAATAGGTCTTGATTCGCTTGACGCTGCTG,570 a.u.

# Some of these lines once more (series 4):
Strand,fluorescence intensity
TGTACGAAGCTATATCAGGAGGATATAGTAGTTAGGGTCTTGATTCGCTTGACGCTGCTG,532 a.u.
CTAGACACTATAAATGACATGATGTGAGCCTTATTCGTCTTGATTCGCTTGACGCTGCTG,525 a.u.
GAACATTTTGCTGGTGATGGCATTGCATCTGAGTAGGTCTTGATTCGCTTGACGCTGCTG,520 a.u.
GAACAAACACCCTTCCACGGGAAGCGCCAGCCGTAGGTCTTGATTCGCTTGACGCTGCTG,491 a.u.
GAAATTGTACCTGATCATGCTAGACAAATAACGTAGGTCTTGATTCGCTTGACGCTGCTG,638 a.u.
CTACCGTGGAAAGAGCACGTGCCTCGCTGGATCTTCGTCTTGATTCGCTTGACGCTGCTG,13400 a.u.
CTAGAAATGAAAGATCACGGGCTACGAAAAGCCTTCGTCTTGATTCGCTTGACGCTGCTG,1610 a.u.
CTAAGCAGTTCCTCAGGTGTTTCTTGTTACTGCTTCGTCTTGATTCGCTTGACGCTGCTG,512 a.u.
GAAACGAGTTGCATGCACGCGTTCATGCCCGTATAGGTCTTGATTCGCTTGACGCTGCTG,600 a.u.
